Literature values that unrelated publications cite.
Compare with care: the assays were run in different laboratories. ± marks the error that the study gave. Converted amounts (≈) assume the structure as drawn.

Molecule = CCN(CC)CCNC(=O)c1c(C)[nH]c(/C=C2\C(=O)Nc3ccc(F)cc32)c1C; system = patients; conditions = 50 mg daily, 24 h post-dose day 3, maximum time-matched; measurement = placebo-adjusted QTcB prolongation; result = 7.9 ms
Molecule = O=C(O)C(Cl)Cl; test = measured: superoxide anion, lipid peroxidation, DNA damage; system = mouse, liver; conditions = 7.7 to 410 mg/kg/day, subchronic; measurement = dose of maximal hepatic oxidative damage; result = 154 mg/kg/day
Molecule = Cc1ccccc1-c1cc(N2CCN(C)CC2)ncc1N(C)C(=O)C(C)(C)c1cc(C(F)(F)F)cc(C(F)(F)F)c1; system = healthy volunteers, plasma; conditions = oral, dose not given, netupitant-palonosetron combination, with: oral contraceptives; measurement = half-life; result = 75.3 h
Molecule = OC(Cn1cncn1)(Cn1cncn1)c1ccc(F)cc1F; system = water; conditions = hydrate form; measurement = aqueous solubility; result = 3560 µg/mL (≈ 11.6 mM)
Molecule = VGGVVIA; test = filtration; system = peptide, sodium phosphate buffer; conditions = pH 7.4; measurement = solubility; result = 134 ± 19 µM
Molecule = COc1cc(F)c(C(C)C)cc1-c1ccc(C(F)(F)F)cc1CN1C(=O)O[C@H](c2cc(C(F)(F)F)cc(C(F)(F)F)c2)[C@@H]1C; system = human; conditions = dose not given, twelve weeks after discontinuation; how to read = reference: during treatment; measurement = plasma concentration after discontinuation; result = 40%
Molecule = C#CCN(C)Cc1ccccc1; system = plasma; conditions = concentration not given; measurement = Cmax; result = 300 nM
Molecule = CC(=O)N[C@H](Cc1ccccc1)C(=O)N1CCC[C@H]1C(=O)N[C@@H](CCCN=C(N)N)B(O)O; system = dog; conditions = oral; measurement = oral bioavailability; result = 53%
Molecule = O=C(O)CNC(=O)c1ccccc1[131I]; system = normal rat, kidney; conditions = 10 min, with: co-injected 99mTc-1; measurement = percent injected dose; result = 5.6 ± 0.6 %ID
Molecule = C#Cc1cccc(Nc2ncnc3cc(OCCOC)c(OCCOC)cc23)c1; test = measured: parent compound; system = human patients, plasma; conditions = oral, 150 mg once daily, day 1; measurement = Cmin; result = 385 ± 213 ng/mL
Molecule = CC[C@H](C)[C@H](NC(=O)[C@@H](CCCCN)NC(=O)[C@@H](CCCCN)NC(=O)[C@@H](Cc1ccccc1)NC(=O)[C@@H](CC(C)C)NC(=O)[C@@H](CCCCN)NC(=O)[C@H](N)CCCCN)C(=O)N[C@@H](CC(C)C)C(=O)N[C@@H](CCCCN)C(=O)N[C@@H](Cc1ccc(O)cc1)C(=O)N[C@@H](CC(C)C)C(N)=O; system = horse erythrocytes 5 % v/v; conditions = 150 µM; measurement = hemolysis; result = 0 ± 0.5%
Molecule = CC(=O)O[C@H]1C(=O)[C@@]2(C)[C@H]([C@H](OC(=O)c3ccccc3)[C@]3(O)C[C@H](OC(=O)[C@H](O)[C@@H](NC(=O)c4ccccc4)c4ccccc4)C(C)=C1C3(C)C)[C@]1(OC(C)=O)CO[C@@H]1C[C@@H]2O; system = mouse 231-BR-HER2 model; conditions = with: tariquidar or elacridar; how to read = reference: without efflux inhibitor; measurement = brain metastasis uptake; result = > 40 fold increase
Molecule = Cc1cnc(NC(=O)C2=C(O)c3ccccc3S(=O)(=O)N2C)s1; test = hydroxylation, substrate; system = human liver microsomes; conditions = Michaelis-Menten phase; measurement = Km; result = 15 µM
Molecule = CC(C)(C)NC(=O)[C@@H]1C[C@@H]2CCCC[C@@H]2CN1C[C@@H](O)[C@H](Cc1ccccc1)NC(=O)[C@H](CC(N)=O)NC(=O)c1ccc2ccccc2n1; system = octanol/water; measurement = logP; result = 4.1
Molecule = CC[C@H](C)CCCCC(=O)N[C@@H](CCN)C(=O)N[C@H](C(=O)N[C@@H](CCN)C(=O)N[C@H]1CCNC(=O)[C@H]([C@@H](C)O)NC(=O)[C@H](CCN)NC(=O)[C@H](CCN)NC(=O)[C@H](CC(C)C)NC(=O)[C@@H](Cc2ccccc2)NC(=O)[C@H](CCN)NC1=O)[C@@H](C)O; test = population PK model; system = patients; conditions = intravenous, typical value; measurement = total clearance; result = 2.5 L/h
Molecule = Cc1cc2c(s1)Nc1ccccc1N=C2N1CCN(C)CC1; system = healthy male smokers; conditions = dose not given, with: fluvoxamine; measurement = increase in AUC(0-24); result = 119%
Molecule = Cc1nc2cccc(OCC(C)(C)C(=O)NC(C)C)c2c(N)c1C(=O)[O-].[Na+]; system = rat, male, plasma; conditions = oral gavage, 30 mg/kg, molecular weight corrected; how to read = reference: parent drug; measurement = Cmax; result = 99.4%
Molecule = CC(C)(CO)c1cc(NC(=O)Nc2ccc(-c3cn4c(n3)sc3cc(OCCN5CCOCC5)ccc34)cc2)no1; system = patients with AML; conditions = repeated daily dosing; measurement = metabolite to parent ratio; result = ~0.6
Molecule = Cc1c(N(C)CS(=O)(=O)O)c(=O)n(-c2ccccc2)n1C; test = measured: CYP2B6; system = human patients treated vs untreated, liver microsomes; conditions = dose not given; how to read = reference: untreated patients; measurement = protein level and activity; result = increased
Molecule = Nc1ccn([C@@H]2CS[C@H](CO)O2)c(=O)n1; system = Japanese HIV-infected patients; conditions = 300 mg, single dose, fasted, with: abacavir 600 mg; measurement = AUC(0-inf); result = 16400 ng·h/mL
Molecule = C[C@]12CC[C@H](OS(=O)(=O)O)CC1=CC[C@@H]1[C@@H]2CC[C@]2(C)C(c3cccnc3)=CC[C@@H]12; system = human, plasma; measurement = unbound fraction; result = < 0.15%
Molecule = C[C@H]1O[C@@H](O[C@H]2[C@@H](O)C[C@H](O[C@H]3[C@@H](O)C[C@H](O[C@H]4CC[C@@]5(C)[C@H](CC[C@@H]6[C@@H]5C[C@@H](O)[C@]5(C)[C@@H](C7=CC(=O)OC7)CC[C@]65O)C4)O[C@@H]3C)O[C@@H]2C)C[C@H](O)[C@@H]1O; test = population PK; system = human, TT genotype; conditions = dose not given; how to read = reference: CC and CT carriers; measurement = clearance reduction; result = 26.6%
Molecule = NC(=O)N1c2ccccc2C=Cc2ccccc21; system = water; conditions = hydrate form; measurement = aqueous solubility; result = 130 µg/mL (≈ 0.55 mM)
Molecule = COc1cc(-c2cnc3cc(OCCN4CCOCC4)ccn23)cc2c1C(=O)N(CC(F)(F)F)CC2; system = healthy human; conditions = oral, up to 600 mg; measurement = half-life; result = 9.5 to 15 h
Molecule = CN(C)C(=O)c1cc2cnc(Nc3ccc(N4CCNCC4)cn3)nc2n1C1CCCC1; system = recurrent brain tumour patients, MRI-enhancing tumour; conditions = 900 mg/day, 5 days; measurement = unbound concentration; result = 2.32 ± 1.79 nmol/g
Molecule = O=C1c2cccc3c2[C@H](CCC3)CN1[C@@H]1CN2CCC1CC2; system = patients, plasma; conditions = oral, dose not given, netupitant-palonosetron combination, with: docetaxel 75 to 100 mg/m^2 IV; measurement = half-life; result = 65.7 h
Molecule = Cc1cc2nc3c(=O)[nH]c(=O)nc-3n(C[C@H](O)[C@H](O)[C@H](O)CO)c2cc1C; system = plasma; conditions = concentration not given; measurement = Cmax; result = 3.9 nM
Molecule = CS(=O)(=O)CCNCc1ccc(-c2ccc3ncnc(Nc4ccc(OCc5cccc(F)c5)c(Cl)c4)c3c2)o1; system = human, severe hepatic impairment; conditions = oral, 100 mg; how to read = reference: healthy controls; measurement = AUC increase; result = ~85%
Molecule = C1CCC(C(CC2CCCCN2)C2CCCCC2)CC1 (stereo not drawn); system = plasma; conditions = concentration not given; measurement = Cmax; result = 280 nM
Molecule = CO[C@H]1O[C@H](COS(=O)(=O)O)[C@@H](O[C@@H]2O[C@@H](C(=O)O)[C@@H](O[C@H]3O[C@H](COS(=O)(=O)O)[C@@H](O[C@@H]4O[C@H](C(=O)O)[C@@H](O[C@H]5O[C@H](COS(=O)(=O)O)[C@@H](O)[C@H](O)[C@H]5NS(=O)(=O)O)[C@H](O)[C@H]4O)[C@H](OS(=O)(=O)O)[C@H]3NS(=O)(=O)O)[C@H](O)[C@H]2OS(=O)(=O)O)[C@H](O)[C@H]1NS(=O)(=O)O; system = human; conditions = concentration not given, clinical; measurement = diarrhoea incidence; result = < 3%
Molecule = NC12CC3CC(CC(C3)C1)C2; system = plasma; conditions = concentration not given; measurement = Cmax; result = 1700 nM
Molecule = CCN1C(=O)N(c2c(F)c(OC)cc(OC)c2F)Cc2cnc3[nH]c(CN4CCOCC4)cc3c21; system = patients with cancer; conditions = oral, 6 mg multiple doses, geometric mean; measurement = Cmax at steady state; result = 78.8 nM
Molecule = COc1cccc(-c2c(C)n(Cc3c(F)cccc3C(F)(F)F)c(=O)n(C[C@H](NCCCC(=O)O)c3ccccc3)c2=O)c1F; system = human, Child-Pugh B hepatic impairment; conditions = 150 mg single dose, mean observed; how to read = reference: patients over healthy volunteers; measurement = Cmax ratio; result = 2.6
Molecule = Cn1cc[nH]c1=S; system = plasma; conditions = concentration not given; measurement = Cmax; result = 9200 nM
Molecule = O=c1c2nc(Br)n([C@@H]3O[C@@H]4COP(=O)(O)O[C@H]4[C@H]3O)c2nc2[nH]c(-c3ccccc3)cn12; system = methanol/water; measurement = log Kw; result = 2.83
Molecule = CC/C=C\C/C=C\C/C=C\C/C=C\C/C=C\C/C=C\CCC(=O)Nc1ccn([C@@H]2O[C@H](CO)[C@@H](O)C2(F)F)c(=O)n1; system = mouse; conditions = 75 mg/kg, Tween 80-ethanol-water vehicle; measurement = plasma half-life; result = ~0.967 h

Repeated from above:
Molecule = Cc1cc2c(s1)Nc1ccccc1N=C2N1CCN(C)CC1; system = healthy male smokers; conditions = dose not given, with: fluvoxamine; measurement = increase in AUC(0-24); result = 119%
Molecule = COc1cc(F)c(C(C)C)cc1-c1ccc(C(F)(F)F)cc1CN1C(=O)O[C@H](c2cc(C(F)(F)F)cc(C(F)(F)F)c2)[C@@H]1C; system = human; conditions = dose not given, twelve weeks after discontinuation; how to read = reference: during treatment; measurement = plasma concentration after discontinuation; result = 40%
Molecule = COc1cccc(-c2c(C)n(Cc3c(F)cccc3C(F)(F)F)c(=O)n(C[C@H](NCCCC(=O)O)c3ccccc3)c2=O)c1F; system = human, Child-Pugh B hepatic impairment; conditions = 150 mg single dose, mean observed; how to read = reference: patients over healthy volunteers; measurement = Cmax ratio; result = 2.6
Molecule = C#CCN(C)Cc1ccccc1; system = plasma; conditions = concentration not given; measurement = Cmax; result = 300 nM
Molecule = COc1cc(-c2cnc3cc(OCCN4CCOCC4)ccn23)cc2c1C(=O)N(CC(F)(F)F)CC2; system = healthy human; conditions = oral, up to 600 mg; measurement = half-life; result = 9.5 to 15 h
Molecule = CC(C)(CO)c1cc(NC(=O)Nc2ccc(-c3cn4c(n3)sc3cc(OCCN5CCOCC5)ccc34)cc2)no1; system = patients with AML; conditions = repeated daily dosing; measurement = metabolite to parent ratio; result = ~0.6
